Measurements gathered from unrelated publications.
Each numbered part is a random draw from the data of one study; scales do not carry over between parts.
UniProt Q15418, sequence (whole entry, looked up): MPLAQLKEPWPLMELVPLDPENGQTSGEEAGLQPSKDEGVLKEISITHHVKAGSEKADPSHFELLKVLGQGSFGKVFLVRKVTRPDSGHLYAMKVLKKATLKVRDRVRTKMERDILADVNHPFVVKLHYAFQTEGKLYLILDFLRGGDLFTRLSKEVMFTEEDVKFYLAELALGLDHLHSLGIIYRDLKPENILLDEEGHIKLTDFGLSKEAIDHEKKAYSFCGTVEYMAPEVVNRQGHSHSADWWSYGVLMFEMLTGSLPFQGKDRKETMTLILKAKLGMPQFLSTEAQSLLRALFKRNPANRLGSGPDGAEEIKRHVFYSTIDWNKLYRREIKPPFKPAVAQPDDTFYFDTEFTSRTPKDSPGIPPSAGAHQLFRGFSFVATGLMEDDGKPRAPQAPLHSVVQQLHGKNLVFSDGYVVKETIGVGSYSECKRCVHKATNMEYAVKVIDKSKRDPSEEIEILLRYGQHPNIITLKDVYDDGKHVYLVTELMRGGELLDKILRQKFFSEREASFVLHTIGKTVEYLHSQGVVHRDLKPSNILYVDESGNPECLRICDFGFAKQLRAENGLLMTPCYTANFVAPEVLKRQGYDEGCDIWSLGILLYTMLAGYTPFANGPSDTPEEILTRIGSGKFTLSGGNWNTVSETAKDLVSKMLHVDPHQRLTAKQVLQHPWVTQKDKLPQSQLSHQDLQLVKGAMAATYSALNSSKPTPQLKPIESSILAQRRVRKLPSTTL
UniProt Q7KZI7, sequence (whole entry, looked up): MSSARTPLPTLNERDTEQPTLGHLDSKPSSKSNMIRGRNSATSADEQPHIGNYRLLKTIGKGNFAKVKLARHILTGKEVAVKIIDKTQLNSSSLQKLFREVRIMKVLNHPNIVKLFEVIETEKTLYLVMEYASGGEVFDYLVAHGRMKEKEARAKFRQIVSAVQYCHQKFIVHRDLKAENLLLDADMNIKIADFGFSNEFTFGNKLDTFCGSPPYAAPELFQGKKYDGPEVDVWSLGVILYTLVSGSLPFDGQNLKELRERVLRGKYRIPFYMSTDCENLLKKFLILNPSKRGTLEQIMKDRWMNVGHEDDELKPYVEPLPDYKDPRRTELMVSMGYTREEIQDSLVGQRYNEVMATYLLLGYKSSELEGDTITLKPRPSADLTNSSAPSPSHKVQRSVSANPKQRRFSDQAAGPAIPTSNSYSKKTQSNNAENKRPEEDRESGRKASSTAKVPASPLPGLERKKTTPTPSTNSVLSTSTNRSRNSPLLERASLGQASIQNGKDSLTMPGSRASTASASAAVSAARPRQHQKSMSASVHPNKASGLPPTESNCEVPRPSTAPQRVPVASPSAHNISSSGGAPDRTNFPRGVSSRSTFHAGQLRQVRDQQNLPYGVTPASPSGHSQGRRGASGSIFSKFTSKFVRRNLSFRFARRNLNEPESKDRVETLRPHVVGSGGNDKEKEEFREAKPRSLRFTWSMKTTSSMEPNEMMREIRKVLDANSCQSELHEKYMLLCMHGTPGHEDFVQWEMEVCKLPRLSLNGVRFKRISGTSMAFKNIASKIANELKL
UniProt P23458, sequence (whole entry, looked up): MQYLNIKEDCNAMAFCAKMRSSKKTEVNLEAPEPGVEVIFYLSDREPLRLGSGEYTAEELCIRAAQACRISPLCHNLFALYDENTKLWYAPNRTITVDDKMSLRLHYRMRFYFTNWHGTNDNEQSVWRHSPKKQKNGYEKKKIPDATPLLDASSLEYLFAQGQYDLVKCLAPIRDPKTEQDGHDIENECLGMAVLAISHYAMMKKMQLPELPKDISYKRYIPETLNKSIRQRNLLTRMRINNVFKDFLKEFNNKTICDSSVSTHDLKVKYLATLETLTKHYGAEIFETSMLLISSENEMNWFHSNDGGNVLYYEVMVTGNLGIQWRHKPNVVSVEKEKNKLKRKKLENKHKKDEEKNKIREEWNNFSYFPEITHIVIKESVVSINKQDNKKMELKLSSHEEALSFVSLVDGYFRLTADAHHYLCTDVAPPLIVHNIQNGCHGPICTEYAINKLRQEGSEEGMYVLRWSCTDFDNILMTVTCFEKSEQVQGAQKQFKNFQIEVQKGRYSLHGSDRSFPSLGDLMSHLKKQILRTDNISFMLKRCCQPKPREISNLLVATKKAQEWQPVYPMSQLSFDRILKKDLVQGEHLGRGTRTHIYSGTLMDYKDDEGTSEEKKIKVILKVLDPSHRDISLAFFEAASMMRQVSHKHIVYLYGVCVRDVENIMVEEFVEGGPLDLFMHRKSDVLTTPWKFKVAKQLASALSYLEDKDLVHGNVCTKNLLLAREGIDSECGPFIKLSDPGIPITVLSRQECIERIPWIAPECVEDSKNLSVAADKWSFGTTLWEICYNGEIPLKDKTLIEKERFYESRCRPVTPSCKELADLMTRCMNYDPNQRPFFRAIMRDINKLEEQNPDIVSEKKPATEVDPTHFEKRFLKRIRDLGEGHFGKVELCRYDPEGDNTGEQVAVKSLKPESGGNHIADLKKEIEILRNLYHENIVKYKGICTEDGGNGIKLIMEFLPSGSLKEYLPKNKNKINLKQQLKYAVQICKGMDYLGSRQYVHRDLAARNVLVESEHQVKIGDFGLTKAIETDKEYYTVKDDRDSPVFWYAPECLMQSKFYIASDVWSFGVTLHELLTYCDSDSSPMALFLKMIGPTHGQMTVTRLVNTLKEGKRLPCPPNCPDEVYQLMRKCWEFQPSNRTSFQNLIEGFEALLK
UniProt Q6PHR2, sequence (whole entry, looked up): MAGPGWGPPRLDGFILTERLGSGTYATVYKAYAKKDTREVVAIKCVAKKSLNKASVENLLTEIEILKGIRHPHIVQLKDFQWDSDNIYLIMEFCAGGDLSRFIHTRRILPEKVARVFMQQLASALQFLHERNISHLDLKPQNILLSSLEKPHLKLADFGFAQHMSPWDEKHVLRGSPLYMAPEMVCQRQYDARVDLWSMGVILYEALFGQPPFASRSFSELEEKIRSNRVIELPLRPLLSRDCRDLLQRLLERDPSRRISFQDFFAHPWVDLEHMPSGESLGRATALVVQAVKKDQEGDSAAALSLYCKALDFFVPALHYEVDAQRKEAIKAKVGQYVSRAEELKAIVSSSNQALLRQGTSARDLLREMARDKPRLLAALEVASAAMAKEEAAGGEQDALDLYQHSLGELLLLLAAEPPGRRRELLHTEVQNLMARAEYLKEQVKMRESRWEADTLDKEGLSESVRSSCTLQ
UniProt P32298, sequence (whole entry, looked up): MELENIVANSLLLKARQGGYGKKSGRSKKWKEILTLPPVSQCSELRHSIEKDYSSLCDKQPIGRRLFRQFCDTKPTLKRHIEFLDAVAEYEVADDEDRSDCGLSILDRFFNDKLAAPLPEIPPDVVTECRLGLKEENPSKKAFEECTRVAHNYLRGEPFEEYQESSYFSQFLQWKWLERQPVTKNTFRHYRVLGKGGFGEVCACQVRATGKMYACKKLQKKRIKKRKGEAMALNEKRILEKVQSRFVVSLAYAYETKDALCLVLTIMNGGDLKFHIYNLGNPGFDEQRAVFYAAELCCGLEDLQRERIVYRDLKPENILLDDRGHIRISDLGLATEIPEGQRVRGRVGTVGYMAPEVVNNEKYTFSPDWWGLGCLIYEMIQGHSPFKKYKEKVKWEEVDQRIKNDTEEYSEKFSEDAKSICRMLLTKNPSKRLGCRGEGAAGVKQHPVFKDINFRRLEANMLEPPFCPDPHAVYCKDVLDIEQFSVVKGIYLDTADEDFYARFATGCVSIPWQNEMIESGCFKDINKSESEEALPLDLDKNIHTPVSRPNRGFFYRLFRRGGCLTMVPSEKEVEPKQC
UniProt Q8N5S9, sequence (whole entry, looked up): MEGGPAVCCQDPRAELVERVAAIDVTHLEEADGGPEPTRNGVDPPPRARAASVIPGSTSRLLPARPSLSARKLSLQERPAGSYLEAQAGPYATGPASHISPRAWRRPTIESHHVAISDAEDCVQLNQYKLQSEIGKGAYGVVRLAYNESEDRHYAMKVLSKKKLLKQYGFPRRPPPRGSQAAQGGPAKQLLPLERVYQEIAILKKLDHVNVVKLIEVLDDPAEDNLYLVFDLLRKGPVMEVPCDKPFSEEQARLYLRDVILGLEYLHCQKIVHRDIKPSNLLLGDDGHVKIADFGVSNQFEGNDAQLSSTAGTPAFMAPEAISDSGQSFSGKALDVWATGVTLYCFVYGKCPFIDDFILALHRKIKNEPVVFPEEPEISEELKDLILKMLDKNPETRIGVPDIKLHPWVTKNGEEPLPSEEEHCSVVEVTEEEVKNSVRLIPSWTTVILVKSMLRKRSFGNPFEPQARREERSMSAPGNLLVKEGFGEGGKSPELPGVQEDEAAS

Block 1 — technique: RNA Bind-n-Seq; molecule type: RNA; matrix: in vitro; concentration: not given; reference: input RNA pool; reading: higher = stronger binding; quantity: bound/input enrichment
Target: RING finger protein unkempt homolog, zinc fingers 1-6, GST-SBP tag (UNK, Homo sapiens, UniProt Q9C0B0, residues 30-357)
UniProt Q9C0B0, sequence (30-357, looked up): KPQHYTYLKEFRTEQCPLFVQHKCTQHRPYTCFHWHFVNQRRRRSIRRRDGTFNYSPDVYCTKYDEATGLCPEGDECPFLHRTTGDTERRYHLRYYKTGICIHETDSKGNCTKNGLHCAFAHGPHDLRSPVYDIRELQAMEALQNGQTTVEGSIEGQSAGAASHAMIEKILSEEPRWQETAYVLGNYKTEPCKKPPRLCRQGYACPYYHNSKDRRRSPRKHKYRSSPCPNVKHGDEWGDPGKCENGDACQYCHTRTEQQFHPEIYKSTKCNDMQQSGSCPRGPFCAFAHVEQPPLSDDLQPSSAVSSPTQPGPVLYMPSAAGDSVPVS
Notes: RNA with constant flanks, human-mouse chimeric sites, ends assumed
Constant ends, left off below: GGGAGUUCUACAGUCCGACGAUC … CAACAGAGGAUUGAGCAUCA
GGACAUCUGUCAAAUUGUUAUGUUCCUGUGAAACAAGUGAACACUCUGAUACACUUCAUCUGCUUGUACAUUUAACUGAUAGAGAAAUGUAAAUAUGAAUAUAUUUACAAUGUGUCACUU: 0.119 ratio
GUUGCCAGCUUCCGGUUCCGUUGGGCUAGCAAGCUCCCUGAGCUACGGUCCCUGGCACUCUCAAUCCGCCAUCCAACAAACAUGGAUCAGGUAAUGCAGUUUGUGGAGCCCAGCCGGCAG: 0.107 ratio
UUACCCGAGAACGAGGAUGAGCUGGAGAGCACCAACAGACGCUAUACCAAGAGGGACUGUAGCACUUUCCUCAGAACUAGUGAGACGGGCAUCGUGGACCAGGUCAUGGUCACUCUCAAC: 0.324 ratio
AAAGAGAAACUAAAGCAACUAAUAGAGAAGAGGAUUGGCAAAGAGAAUUUCAUAGAGGAAACUAGGAUUAUUAGCAAACAUGAGUUAUAUUCCAGAGCGUCUCAGAAAACCCCAGCCAAC: 4.78 ratio
AUCAAAUACUUUGGGGACAUCAUUAGUGUGGGACAGAGACUGUUGCAAGGAGCUCGGAUCUUAGGGAUUCCAGUUAUUGUAACAGAACAAUACCCCAAAGGACUUGGCAGCACCGUUCAA: 0.161 ratio
ACCAUUUUCGCGGUUCAGGCUUUGUGUUGUAUUUACUUACGGUAUUAAAUUAUUAUUCUGCUUAGCUUAAAGUAAGGAUAAUUGCAUUUAAAGAGGUUACUGAAUGUUACUCUGAAACUU: 0.254 ratio
AGUACUGACUCAGGCGGAUUUUGCAACACCAAGCUCACAGCAGCAGCAUCUUAGUCACAGUAGGGUAGCUUUAGGGCUCUGUGGCCAGGGUUUUAUUCACAUGCAGGUUUGGAAAAUGUA: 0.593 ratio
UUGGAAGGACCAGAGCCUAAUCAACUGAAACCAUUAGUUAUACAGGCUAUGCCCACCCUAAUAGAACUAAUGAAAGACCCCAGUGUAGUUGUUCGAGAUACAGCUGCGUGGACUGUGGGC: 0.426 ratio

Block 2 — technique: aptamer microarray, sandwich; molecule type: DNA with 2'F-ANA; matrix: in vitro; concentration: 200 nM; together with: Cy3 exosite-II aptamer, 400 nM; reading: higher = stronger binding; quantity: mean fluorescence intensity; sequence: GGTTGGTGTGGTTGG
Target: Prothrombin, mature alpha-thrombin (F2, Homo sapiens, UniProt P00734)
Notes: whole 15-mer aptamer, many near background
2'F-ANA at 1 2 5 9 10 12: 49.7 a.u.
2'F-ANA at 2 3 4 5 6 10 14: 50.6 a.u.
2'F-ANA at 1 2 3 4 7 12 13 14: 77.8 a.u.
2'F-ANA at 3 4 6 9 12 13 15: 500 a.u.
2'F-ANA at 1 2 4 5 8 10 11 14 15: 54.5 a.u.
2'F-ANA at 3 6 7 8 9 11 12 13 15: 1020 a.u.
2'F-ANA at 4 8 9 11 12 14 15: 95.5 a.u.
2'F-ANA at 1 3 6 8 9 13: 218 a.u.

Block 3 — observed: enzyme activity; action: inhibitor; concentration: 0.5 µM; reference: control; quantity: remaining activity
Target: Serine/threonine-protein kinase STK11 (STK11, Homo sapiens, UniProt Q15831)
UniProt Q15831, sequence (whole entry, looked up): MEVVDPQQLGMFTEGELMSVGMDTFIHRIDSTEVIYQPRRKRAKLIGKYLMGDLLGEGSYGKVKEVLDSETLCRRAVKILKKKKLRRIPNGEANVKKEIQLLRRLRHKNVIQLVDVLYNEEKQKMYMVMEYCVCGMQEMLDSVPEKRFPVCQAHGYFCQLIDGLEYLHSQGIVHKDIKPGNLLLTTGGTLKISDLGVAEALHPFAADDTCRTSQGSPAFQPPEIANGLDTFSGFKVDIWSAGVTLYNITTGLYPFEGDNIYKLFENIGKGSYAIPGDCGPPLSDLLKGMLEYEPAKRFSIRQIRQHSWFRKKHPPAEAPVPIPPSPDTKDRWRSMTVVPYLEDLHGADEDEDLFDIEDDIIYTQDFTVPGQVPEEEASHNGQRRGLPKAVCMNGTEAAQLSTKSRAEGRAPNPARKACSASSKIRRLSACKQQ
O=c1c2ccccc2[nH]c(=S)n1CCN1CCC(=C(c2ccc(F)cc2)c2ccc(F)cc2)CC1: 107%
NCCNc1ncc(C(N)=O)c(Nc2cccc(C(F)(F)F)c2)n1: 49.3%
O=C(Nc1cccc(Nc2cc(Nc3cccc(C(F)(F)F)c3)ncn2)c1)C1CC1: 100%
Nc1ccc2ncnc(NCCc3ccc(Oc4ccccc4)cc3)c2c1: 97.6%
Cc1ccc(Nc2nccc(N(C)c3ccc4c(C)n(C)nc4c3)n2)cc1S(N)(=O)=O: 92.1%
COc1ccc(C(=O)Nc2sc3c(c2C(N)=O)CCCC3)cc1OC: 103%
CN(C)c1ccc(C=C2C(=O)Nc3ccccc32)cc1: 99.4%
O=C1NC(=O)C(c2cn(CCCO)c3ncccc23)=C1c1cnccn1: 83.1%
CO[C@H]1C[C@@H]2CC[C@@H](C)[C@@](O)(O2)C(=O)C(=O)N2CCCC[C@H]2C(=O)O[C@H]([C@H](C)C[C@@H]2CC[C@@H](O)[C@H](OC)C2)CC(=O)[C@H](C)/C=C(\C)[C@@H](O)[C@@H](OC)C(=O)[C@H](C)C[C@H](C)/C=C/C=C/C=C/1C: 91.1%
OCC(O)CCON=C1C(c2c(O)[nH]c3ccccc23)=Nc2ccccc21 (centres unmarked): 5.77%
COc1ccc(CNC(=O)Nc2ncc([N+](=O)[O-])s2)cc1: 100%
Cn1c2ccccc2c2c3c(c4c5ccccc5n(CCC#N)c4c21)CNC3=O: 31.8%
N#CC(C#N)=C(N)/C(C#N)=C/c1ccc(O)cc1: 96.5%
O=C(CCCc1ccc(-c2ccccc2F)cc1)Nc1ccc(O)cc1: 97.4%

Block 4 — SMILES: CSc1cccnc1N1CCN(Cc2nc3ccccc3[nH]2)CC1; concentration: 1 µM; quantity: remaining binding
PRKCH (Homo sapiens, UniProt P24723); cell-free assay, competition with immobilised ligand: 100%
GRK3 (Homo sapiens, UniProt P35626); cell-free assay, competition with immobilised ligand: 31%
NUAK2 (Homo sapiens, UniProt Q9H093); cell-free assay, competition with immobilised ligand: 100%
Tyrosine-protein kinase ABL1, non-phosphorylated (ABL1, Homo sapiens, UniProt P00519, Q252H); cell-free assay, competition with immobilised ligand: 67%
Ribosomal protein S6 kinase alpha-1, N-terminal kinase domain (RPS6KA1, Homo sapiens, UniProt Q15418); cell-free assay, competition with immobilised ligand: 100%
Ribosomal protein S6 kinase alpha-1, C-terminal kinase domain (RPS6KA1, Homo sapiens, UniProt Q15418); cell-free assay, competition with immobilised ligand: 100%
NTRK1 (Homo sapiens, UniProt P04629); cell-free assay, competition with immobilised ligand: 85%
Tyrosine-protein kinase ABL1, phosphorylated (ABL1, Homo sapiens, UniProt P00519, T315I); cell-free assay, competition with immobilised ligand: 93%
MAPK13 (Homo sapiens, UniProt O15264); cell-free assay, competition with immobilised ligand: 100%
STK33 (Homo sapiens, UniProt Q9BYT3); cell-free assay, competition with immobilised ligand: 91%
ERBB2 (Homo sapiens, UniProt P04626); cell-free assay, competition with immobilised ligand: 88%
Cyclin-dependent kinase 4, with cyclin D1 (CDK4, Homo sapiens, UniProt P11802); cell-free assay, competition with immobilised ligand: 77%
WNK2 (Homo sapiens, UniProt Q9Y3S1); cell-free assay, competition with immobilised ligand: 100%
ULK3 (Homo sapiens, UniProt Q6PHR2); cell-free assay, competition with immobilised ligand: 81%
GRK4 (Homo sapiens, UniProt P32298); cell-free assay, competition with immobilised ligand: 88%
RIOK2 (Homo sapiens, UniProt Q9BVS4); cell-free assay, competition with immobilised ligand: 100%
PRKAA2 (Homo sapiens, UniProt P54646); cell-free assay, competition with immobilised ligand: 100%
MAP2K3 (Homo sapiens, UniProt P46734); cell-free assay, competition with immobilised ligand: 100%
AAK1 (Homo sapiens, UniProt Q2M2I8); KINOMEscan; reference: control: 100%
Tyrosine-protein kinase JAK1, JH1 (JAK1, Homo sapiens, UniProt P23458); cell-free assay, competition with immobilised ligand: 100%
CAMKK1 (Homo sapiens, UniProt Q8N5S9); cell-free assay, competition with immobilised ligand: 100%
COQ8B (Homo sapiens, UniProt Q96D53); cell-free assay, competition with immobilised ligand: 100%
MARK2 (Homo sapiens, UniProt Q7KZI7); cell-free assay, competition with immobilised ligand: 100%

For quick reference, copied from above (block 3):
COc1ccc(C(=O)Nc2sc3c(c2C(N)=O)CCCC3)cc1OC: 103%
Cn1c2ccccc2c2c3c(c4c5ccccc5n(CCC#N)c4c21)CNC3=O: 31.8%
Cc1ccc(Nc2nccc(N(C)c3ccc4c(C)n(C)nc4c3)n2)cc1S(N)(=O)=O: 92.1%
Nc1ccc2ncnc(NCCc3ccc(Oc4ccccc4)cc3)c2c1: 97.6%
O=C1NC(=O)C(c2cn(CCCO)c3ncccc23)=C1c1cnccn1: 83.1%
O=c1c2ccccc2[nH]c(=S)n1CCN1CCC(=C(c2ccc(F)cc2)c2ccc(F)cc2)CC1: 107%
